{"data": "Measured values pooled from the literature", "cell line": "Vero", "note": "Lines come from different studies, so protocols differ."}
{"SMILES": "NC(=S)N/N=C/c1ccc(-c2ccc(C(=O)O)c(O)c2)o1", "method": "MTT", "concentration": "concentration not given", "endpoint": "cytotoxicity", "value": "not toxic"}
{"SMILES": "COc1c(C)c2c(c(O)c1C/C=C(\\C)CCC(=O)O)C(=O)OC2", "refers to": "cell morphology", "endpoint": "minimal cytotoxic concentration", "value": "> 100 µM"}
{"SMILES": "C#CC[C@H](NC(=O)OC(C)(C)C)C(=O)N(Cc1ccccc1)Cc1cn(C)c2ccc(C(=O)OC)cc12", "observed": "cell morphology", "method": "microscopy", "time": "5 (unit not given)", "endpoint": "minimum cytotoxic concentration", "value": "100 µM"}
{"SMILES": "NC(=O)c1ncn([C@@H]2O[C@H](CO)[C@@H](O)[C@H]2O)n1", "refers to": "cell morphology", "endpoint": "minimal cytotoxic concentration", "value": "> 250 µM"}
{"SMILES": "CCN(CCO)CCCC(C)Nc1ccnc2cc(Cl)ccc12 (stereo not shown)", "observed": "cell morphology", "method": "microscopy", "time": "5 (unit not given)", "endpoint": "minimum cytotoxic concentration", "value": "100 µM"}
{"SMILES": "CC(C)(C)NC(=O)[C@H](Cc1c[nH]c2ccccc12)NC(=O)[C@@H]1CCCN1C(=O)OC(C)(C)C", "observed": "cell morphology", "method": "microscopy", "time": "5 (unit not given)", "endpoint": "minimum cytotoxic concentration", "value": "> 100 µM"}
{"SMILES": "CO[C@]1(CO)O[C@@H](n2ccc(N)nc2=O)C(F)(F)[C@@H]1O", "observed": "cell morphology", "method": "microscopy", "time": "5 (unit not given)", "endpoint": "minimum cytotoxic concentration", "value": "> 100 µM"}
{"SMILES": "O=C(/C=C/C=C/c1ccc([N+](=O)[O-])cc1)c1ccc(Cl)cc1", "method": "MTT", "concentration": "up to 300 µg/mL", "time": "24 h", "endpoint": "viability", "value": "> 75%"}
{"SMILES": "Nc1ccn([C@@H]2O[C@](F)(CO)[C@@H](O)C2(F)F)c(=O)n1", "observed": "cell morphology", "method": "microscopy", "time": "5 (unit not given)", "endpoint": "minimum cytotoxic concentration", "value": "0.16 µM"}
{"SMILES": "CC(C)(C)NC(=O)[C@H](Cc1c[nH]c2ccccc12)NC(=O)[C@H](Cc1ccccc1)NCc1ccc(-c2ccccc2)cc1", "observed": "cell morphology", "method": "microscopy", "time": "5 (unit not given)", "endpoint": "minimum cytotoxic concentration", "value": "> 100 µM"}
{"note": "Some of these lines once more:"}
{"SMILES": "COc1c(C)c2c(c(O)c1C/C=C(\\C)CCC(=O)O)C(=O)OC2", "refers to": "cell morphology", "endpoint": "minimal cytotoxic concentration", "value": "> 100 µM"}
